Assay results collected from several papers.
Protocols differ between the studies behind these lines.
Concentration: 1 µM
PRKACA: cAMP-dependent protein kinase catalytic subunit alpha (PRKACA, Homo sapiens, UniProt P17612)
Chain of UniProt P15056 (whole entry, unmodified, looked up): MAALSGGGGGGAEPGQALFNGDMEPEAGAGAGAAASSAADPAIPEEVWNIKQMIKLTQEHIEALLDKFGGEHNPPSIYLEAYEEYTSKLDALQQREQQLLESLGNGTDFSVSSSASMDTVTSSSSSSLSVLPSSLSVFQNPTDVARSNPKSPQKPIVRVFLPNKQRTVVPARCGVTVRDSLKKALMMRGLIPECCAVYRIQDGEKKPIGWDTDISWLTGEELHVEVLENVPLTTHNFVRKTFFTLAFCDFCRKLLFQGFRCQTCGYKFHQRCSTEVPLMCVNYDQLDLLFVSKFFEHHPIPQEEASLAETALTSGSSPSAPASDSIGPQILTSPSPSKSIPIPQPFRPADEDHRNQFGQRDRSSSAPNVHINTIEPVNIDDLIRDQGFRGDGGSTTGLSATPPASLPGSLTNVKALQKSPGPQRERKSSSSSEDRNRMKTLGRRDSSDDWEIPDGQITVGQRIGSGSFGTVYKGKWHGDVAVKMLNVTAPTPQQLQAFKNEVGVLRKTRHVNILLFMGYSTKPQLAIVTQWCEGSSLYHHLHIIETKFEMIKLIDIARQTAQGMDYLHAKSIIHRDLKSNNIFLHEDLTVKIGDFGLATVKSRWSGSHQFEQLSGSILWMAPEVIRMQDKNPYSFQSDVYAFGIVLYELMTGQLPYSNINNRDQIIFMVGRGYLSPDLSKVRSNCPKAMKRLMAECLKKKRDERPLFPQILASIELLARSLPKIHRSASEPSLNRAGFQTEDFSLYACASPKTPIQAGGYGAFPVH
Chain of UniProt O76039 (whole entry, looked up): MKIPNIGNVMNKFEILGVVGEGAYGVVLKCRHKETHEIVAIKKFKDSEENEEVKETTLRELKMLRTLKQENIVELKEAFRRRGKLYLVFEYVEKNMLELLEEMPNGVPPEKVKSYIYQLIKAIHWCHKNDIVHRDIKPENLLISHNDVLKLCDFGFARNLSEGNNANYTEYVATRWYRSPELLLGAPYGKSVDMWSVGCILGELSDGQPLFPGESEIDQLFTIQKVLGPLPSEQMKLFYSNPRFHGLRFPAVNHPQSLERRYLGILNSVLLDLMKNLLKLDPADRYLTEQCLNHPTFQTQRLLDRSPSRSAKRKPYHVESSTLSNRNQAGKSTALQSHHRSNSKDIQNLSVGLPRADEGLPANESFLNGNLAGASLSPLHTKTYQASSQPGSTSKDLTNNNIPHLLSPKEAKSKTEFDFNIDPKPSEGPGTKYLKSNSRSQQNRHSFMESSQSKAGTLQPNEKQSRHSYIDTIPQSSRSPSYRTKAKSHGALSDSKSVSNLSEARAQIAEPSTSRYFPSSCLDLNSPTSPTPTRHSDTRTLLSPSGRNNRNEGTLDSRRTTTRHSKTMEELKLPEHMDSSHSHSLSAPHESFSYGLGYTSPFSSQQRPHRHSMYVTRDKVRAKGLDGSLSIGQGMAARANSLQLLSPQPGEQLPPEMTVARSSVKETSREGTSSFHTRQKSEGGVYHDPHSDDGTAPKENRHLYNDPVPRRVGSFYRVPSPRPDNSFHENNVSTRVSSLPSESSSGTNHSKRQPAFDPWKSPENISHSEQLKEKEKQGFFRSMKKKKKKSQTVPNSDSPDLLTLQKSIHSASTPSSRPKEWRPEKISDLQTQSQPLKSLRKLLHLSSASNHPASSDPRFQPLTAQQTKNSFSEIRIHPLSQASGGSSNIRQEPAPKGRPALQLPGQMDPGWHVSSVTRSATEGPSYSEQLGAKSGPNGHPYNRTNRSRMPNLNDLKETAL

`CNc1ncc2c(/C=C/C(=O)N3CCC(OC)CC3)nn(Cc3cccc(C(F)(F)F)c3)c2n1` has a remaining activity of 98% (PRKACA; enzyme activity, inhibitor, radiometric).
The remaining activity of `COc1cc(-c2cncc3c2CN(C)Cc2cc(N4CCNCC4)ccc2-3)cc(OC)c1OC` is reported as 102% (PRKACA; enzyme activity, inhibitor).
For `C=CC(=O)N1CCC(COCC(=O)N2CCN(c3nc(-c4cnc(N)nc4C(F)F)nc(N4CCOC[C@@H]4C)n3)CC2)CC1`, the remaining binding was 89% (CDKL5 (Homo sapiens, UniProt O76039); binding, competition with immobilised ligand).
`Cc1cc([C@@H](C)Nc2ccccc2C(=O)O)c2nc(N3CCC(F)(F)CC3)c(C#N)c(=O)n2c1` gave a remaining binding of 74% (BRAF (Homo sapiens, UniProt P15056, V600E); binding, competition with immobilised ligand).
